Measured values of several laboratories.
Compare with care: the assays were run in different laboratories. Numbers after ± are the reported error.

| SMILES | assay | system | setting | tissue uptake |
| --- | --- | --- | --- | --- |
| O=C(O)CC[C@H](NC(=O)O[C@@H](CCCCNC(=O)c1ccc([18F])cc1)C(=O)O)C(=O)O |  | mouse, PC-3 PIP/flu xenografts, kidney | 60 min | 6.97 ± 7.02 %ID/g |
| CC[C@H](C)[C@@H]1NC(=O)[C@@H](NC(=O)CNC(=O)c2ccc(F)cc2)CSSC[C@@H]2NC(=O)[C@H](C)NC(=O)CNC(=O)[C@@H]3CCCN3C(=O)[C@@H]3CSSC[C@@H](C(=O)NCC(=O)O)NC(=O)[C@H](Cc4ccc(O)cc4)NC(=O)CNC(=O)[C@H](CC(N)=O)NC(=O)CNC(=O)[C@H](CCCNC(=N)N)NC(=O)[C@H](CSSC[C@H](NC(=O)[C@H](CCCNC(=N)N)NC(=O)[C@H](Cc4ccccc4)NC(=O)[C@H](CC(C)C)NC(=O)[C@H](CC(C)C)NC(=O)[C@H]([C@@H](C)O)NC(=O)CNC(=O)[C@H](CC(C)C)NC(=O)[C@H](CC(=O)O)NC(=O)[C@H]([C@@H](C)O)NC(=O)[C@H](CCCNC(=N)N)NC(=O)[C@H](CCSC)NC(=O)[C@H](CC(N)=O)NC(=O)[C@H](CC(C)C)NC1=O)C(=O)N[C@@H](CCCNC(=N)N)C(=O)N[C@@H](CCCNC(=N)N)C(=O)N[C@@H](CC(=O)O)C(=O)N[C@@H](CO)C(=O)N[C@@H](CC(=O)O)C(=O)N3)NC(=O)[C@H]([C@@H](C)CC)NC2=O [fluorine-18 labelled] | γ-counting | mouse, lungs |  | 2.9 ± 1.2 %ID/g |
| N=C(N)NCc1ccc(C(=O)NCCCC[C@H](NC(=O)CCCCCCC(=O)NCCCC[C@H](NC(=O)N[C@@H](CCC(=O)O)C(=O)O)C(=O)O)C(=O)O)cc1[131I] |  | SCID mouse, PC-3 xenografts, stomach | 21 h | 1.98 ± 3.1 %ID/g |
| COc1cc2ncnc(Oc3cccc(N[11C](=O)Nc4cc(C(C)(C)C(F)(F)F)on4)c3)c2cc1OC |  | Balb/c nude mouse, female, A375 melanoma xenograft, small intestine | 6.6 MBq, 60 min | 22.3 ± 3.18 %ID/g |
| N=C(N)NCc1ccc(C(=O)NCCCC[C@H](NC(=O)N[C@@H](CCC(=O)O)C(=O)O)C(=O)O)cc1[131I] |  | SCID mouse, PC-3 xenografts, brain | 4 h | 0.04 ± 0.01 %ID/g |
| CN[C@](C)(C[18F])C(=O)O |  | SCID mouse U87 xenograft, kidney | 120 min, post injection | 2.8 ± 1 %ID/g |
| N=C(N)NCc1ccc(C(=O)NCCCC[C@H](NC(=O)N[C@@H](CCC(=O)O)C(=O)O)C(=O)O)cc1[211At] |  | SCID mouse, PC-3 xenografts, lungs | 21 h | 1.02 ± 0.21 %ID/g |
| C[S]1CC[S]2CC[P](CO)(CO)[99Tc+]12.[C-]#[O+].[C-]#[O+].[C-]#[O+] |  | female CF-1 mouse, carcass | intravenous, 1 h | 4.5 %ID |
| C=Cc1cc(O)cc2nc(-c3ccc(O)c([76Br])c3)oc12 |  | female C57BL/6 mouse, kidney | 3 h, high dose, added: estradiol 20 µg blocking | 0.64 ± 0.25 %ID/g |

A few entries again:
| SMILES | assay | system | setting | tissue uptake |
| --- | --- | --- | --- | --- |
| N=C(N)NCc1ccc(C(=O)NCCCC[C@H](NC(=O)N[C@@H](CCC(=O)O)C(=O)O)C(=O)O)cc1[131I] |  | SCID mouse, PC-3 xenografts, brain | 4 h | 0.04 ± 0.01 %ID/g |
